{"data": "Experimental data pooled from the literature", "note": "Numbered parts are unrelated; each lists some results of a single study."}
{"data": "Block 1", "target": "Prothrombin, mature alpha-thrombin (F2, Homo sapiens, UniProt P00734)", "technique": "aptamer microarray, sandwich", "form": "DNA with 2'F-ANA", "matrix": "in vitro", "tested at": "200 nM", "setting": "whole 15-mer aptamer, many near background", "together with": "Cy3 exosite-II aptamer, 400 nM", "direction": "higher = stronger binding", "strand": "GGTTGGTGTGGTTGG"}
{"Modification": "2'F-ANA at 3 4 5 7 13", "mean fluorescence intensity [a.u.]": 67.5}
{"Modification": "2'F-ANA at 2 3 4 5 7 9 13", "mean fluorescence intensity [a.u.]": 257}
{"Modification": "2'F-ANA at 1 6 7 8 9 11 12 13", "mean fluorescence intensity [a.u.]": 220}
{"Modification": "2'F-ANA at 1 2 3 4 6 8 9 10 11 12 14", "mean fluorescence intensity [a.u.]": 183}
{"Modification": "2'F-ANA at 1 2 4 5 6 7 8 11 12", "mean fluorescence intensity [a.u.]": 81.6}
{"Modification": "2'F-ANA at 3 7 10 12", "mean fluorescence intensity [a.u.]": 802}
{"Modification": "2'F-ANA at 2 8 10 11 13 14", "mean fluorescence intensity [a.u.]": 73.6}
{"Modification": "2'F-ANA at 2 6 9", "mean fluorescence intensity [a.u.]": 392}
{"Modification": "2'F-ANA at 1 2 6 9 10 12 14", "mean fluorescence intensity [a.u.]": 48.2}
{"Modification": "2'F-ANA at 2 5 6 11 12 13 15", "mean fluorescence intensity [a.u.]": 83.2}
{"Modification": "2'F-ANA at 3 10 12 14 15", "mean fluorescence intensity [a.u.]": 428}
{"Modification": "2'F-ANA at 1 4 6 7 9 10 11 13", "mean fluorescence intensity [a.u.]": 47.4}
{"Modification": "2'F-ANA at 2 3 6 7 8 9 10 11 13", "mean fluorescence intensity [a.u.]": 294}
{"Modification": "2'F-ANA at 1 3 4 5 9 10 12 13 14 15", "mean fluorescence intensity [a.u.]": 46.4}
{"Modification": "2'F-ANA at 2 5 6 7 8 10 12 13 14 15", "mean fluorescence intensity [a.u.]": 50.1}
{"Modification": "2'F-ANA at 1 2 4 5 9 11 12 13 14 15", "mean fluorescence intensity [a.u.]": 76.2}
{"Modification": "2'F-ANA at 4 5 6 8 10 12", "mean fluorescence intensity [a.u.]": 49.5}
{"Modification": "2'F-ANA at 1 2 4 8 11 12", "mean fluorescence intensity [a.u.]": 271}
{"Modification": "2'F-ANA at 2 5 7 9 11 12 13", "mean fluorescence intensity [a.u.]": 90.7}
{"Modification": "2'F-ANA at 1 2 3 7 8 9 10 11 12 13 14", "mean fluorescence intensity [a.u.]": 120}
{"Modification": "2'F-ANA at 1 3 4 5 7 15", "mean fluorescence intensity [a.u.]": 62.5}
{"data": "Block 2", "target": "Interferon regulatory factor 7, full length, phosphomimetic (IRF7, Homo sapiens, UniProt Q92985, residues 1-503, S471D/S472D/S475D/S476D/S477D/S483D/S484D/S487D)", "technique": "protein-binding microarray", "form": "double-stranded DNA, one strand shown", "matrix": "in vitro", "tested at": "2200 nM top", "setting": "60-bp whole probe", "together with": "salmon DNA 0.4 mg/ml", "baseline": "random background probes", "direction": "higher = stronger binding", "shared flanks, not repeated": "GCCTAGCAC … GTCTTGATTCGCTTGACGCTGCTG", "chain of UniProt Q92985 (whole entry, unmodified, looked up)": "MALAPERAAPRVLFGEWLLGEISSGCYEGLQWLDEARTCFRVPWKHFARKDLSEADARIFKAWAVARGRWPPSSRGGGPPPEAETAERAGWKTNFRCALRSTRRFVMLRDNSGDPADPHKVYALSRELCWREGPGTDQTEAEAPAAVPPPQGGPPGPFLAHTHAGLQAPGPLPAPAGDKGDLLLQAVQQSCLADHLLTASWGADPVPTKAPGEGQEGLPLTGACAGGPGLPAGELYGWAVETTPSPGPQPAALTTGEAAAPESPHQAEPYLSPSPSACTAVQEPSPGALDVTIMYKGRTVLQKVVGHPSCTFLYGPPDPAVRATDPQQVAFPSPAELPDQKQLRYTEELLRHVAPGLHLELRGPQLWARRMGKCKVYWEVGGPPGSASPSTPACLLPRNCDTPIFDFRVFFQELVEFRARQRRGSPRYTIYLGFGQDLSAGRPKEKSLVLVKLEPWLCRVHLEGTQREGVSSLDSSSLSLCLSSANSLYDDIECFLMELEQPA"}
{"Strand": "ATAAACTTAGTTTTCAATTTGTGCTAG", "fitted relative affinity [z-score]": 1.16}
{"Strand": "TCAGCTATACCACTCTTACTGTGCTAG", "fitted relative affinity [z-score]": 0.779}
{"Strand": "TTAGATTTCGGAACTGGATTAGTGCTA", "fitted relative affinity [z-score]": 1.32}
{"Strand": "TCAAATATATATATTATACTGTGCTAG", "fitted relative affinity [z-score]": 0.11}
{"Strand": "TCAAGTTCAGTTCTCTAACTGTGCTAG", "fitted relative affinity [z-score]": 0.699}
{"Strand": "TTAGGTATCGGACTGTGTTAGTGCTAG", "fitted relative affinity [z-score]": 0.266}
{"Strand": "TACTTTCTGAATGCTCCCCCTGTGCTA", "fitted relative affinity [z-score]": 5.98}
{"Strand": "GACGATAGCGGGTTTCGAGACGTGCTA", "fitted relative affinity [z-score]": 0.916}
{"Strand": "GACGATATCAGTAGCGAGACGTGCTAG", "fitted relative affinity [z-score]": -0.183}
{"Strand": "TTAGGTCTCCTTCACCTTTAGTGCTAG", "fitted relative affinity [z-score]": 0.888}
{"Strand": "GCCGGTTTCGGTCTCGGGACGTGCTAG", "fitted relative affinity [z-score]": 8.1}
{"Strand": "GACGGTTTCGGGACTGGGTACGTGCTA", "fitted relative affinity [z-score]": 3.81}
{"Strand": "TCATTTCTCTTTCCTTCACTGTGCTAG", "fitted relative affinity [z-score]": 4.71}
{"Strand": "GCCGGTCTCCTTATCCTGACGTGCTAG", "fitted relative affinity [z-score]": 0.908}
{"Strand": "CACTGCATCTGATTTCTCAAAGTGCTA", "fitted relative affinity [z-score]": 0.864}
{"Strand": "TTAGGTTTCGGTTTCGGTTAGTGCTAG", "fitted relative affinity [z-score]": 16.6}
{"Strand": "TCAGATTTTTTTTCCTAACTGTGCTAG", "fitted relative affinity [z-score]": 0.908}
{"Strand": "CACGGTTTCCTTTTCCTGACGTGCTAG", "fitted relative affinity [z-score]": 5.45}
{"Strand": "GACGGTTTCGGGTTTCGGGAGGTGCTA", "fitted relative affinity [z-score]": 9.52}
{"data": "Block 3", "target": "Ras GTPase-activating protein-binding protein 1, C-terminal RGG region (G3BP1, Homo sapiens, UniProt Q13283)", "technique": "RNA Bind-n-Seq", "form": "RNA", "matrix": "in vitro", "tested at": "1 µM", "setting": "whole 134-nt RNA, ends assumed", "together with": "150 mM KCl", "baseline": "input library", "direction": "higher = stronger binding", "chain of UniProt Q13283 (whole entry, looked up)": "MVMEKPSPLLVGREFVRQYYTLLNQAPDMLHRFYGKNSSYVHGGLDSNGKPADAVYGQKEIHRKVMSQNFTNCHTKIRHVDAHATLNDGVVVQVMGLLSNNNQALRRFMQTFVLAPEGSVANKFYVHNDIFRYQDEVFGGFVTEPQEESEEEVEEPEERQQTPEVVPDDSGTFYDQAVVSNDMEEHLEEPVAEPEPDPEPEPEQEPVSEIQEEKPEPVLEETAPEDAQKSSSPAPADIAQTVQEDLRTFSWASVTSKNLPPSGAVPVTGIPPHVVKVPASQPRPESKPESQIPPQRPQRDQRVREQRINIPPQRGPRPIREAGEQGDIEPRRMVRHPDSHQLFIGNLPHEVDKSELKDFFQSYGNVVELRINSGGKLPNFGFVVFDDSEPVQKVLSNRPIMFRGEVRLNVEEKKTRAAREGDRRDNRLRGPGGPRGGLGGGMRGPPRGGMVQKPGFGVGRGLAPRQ"}
{"Strand": "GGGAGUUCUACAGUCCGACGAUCUGGCCCUGGUGGCAUGCGGGGAGGAAGAGGUGGCCUCAUGGAUCGUGGUGGUCCCGGUGGAAUGUUCAGAUGUGGCCGUGGUGGAGACAGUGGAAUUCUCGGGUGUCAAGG", "log2 enrichment": 2.97}
{"Strand": "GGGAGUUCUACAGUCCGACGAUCCAAGUCCUGUGCUACACAUCGUAUGUACCGAAUCGGAAAAAGGAAAAAGGAAAGGAAAGUAUUAUGUUACGCCGUUCGGAUCUGCACUUCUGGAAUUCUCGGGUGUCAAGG", "log2 enrichment": -1.89}
{"Strand": "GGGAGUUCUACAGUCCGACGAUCACCAUGCAGGUGGGCAUCUUUGGGAAGUGGGGCAAGGGGGGGAUAGGGAGGGGGGUAACACUUUGGGAACAGGUGGUCCCAGGUCGUUCCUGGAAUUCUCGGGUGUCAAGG", "log2 enrichment": 2.76}
{"Strand": "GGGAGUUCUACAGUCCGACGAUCUCAAGUCCUGUGCUACACAUCGUAUGUACCGAAUCGGAAAGGGAAAGGGAAAGGAAAGUAUUAUGUUACGCCGUUCGGAUCUGCACUUCCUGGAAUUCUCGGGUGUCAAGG", "log2 enrichment": -1.38}
{"Strand": "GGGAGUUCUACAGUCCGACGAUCAGUCCUGUGCUACACAUCGUAUGUACCGAAUCGGGGUUUUUUUGGGGAGGGGUGGGGAAAGUAUUAUGUUACGCCGUUCGGAUCUGCACUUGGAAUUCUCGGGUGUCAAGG", "log2 enrichment": 2.23}
{"Strand": "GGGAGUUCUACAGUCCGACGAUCGCAGGAAGUAAAAACAAAUGGAAAUGCUUCGGAUAGUGAAAGGGGUGGGGGUUGCUAAGGAAAGGGUGGGAUGGGAGUGGGUAAAGAGUUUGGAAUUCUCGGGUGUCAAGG", "log2 enrichment": 1.83}
{"Strand": "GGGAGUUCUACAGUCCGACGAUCUCAAGUCCUGUGCUACACAUCGUAUGUACCGAAUCGGUUUGGAAAGGAAAAAGGAAAGUAUUAUGUUACGCCGUUCGGAUCUGCACUUCCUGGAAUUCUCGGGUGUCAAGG", "log2 enrichment": -1.27}
{"Strand": "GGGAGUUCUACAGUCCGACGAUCCACAAACAACACGCACCCACACAGACACAGAGGGAAGGGGUUGGGAUGGGGACAGGGUGCACAGCAGGGCGGGGUAGGACCCCAGCCCCUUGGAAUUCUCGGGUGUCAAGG", "log2 enrichment": -0.232}
{"Strand": "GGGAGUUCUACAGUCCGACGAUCUCAAGUCCUGUGCUACACAUCGUAUGUACCGAAUCGGGGAAAGGAAAGGGAAAGGAAAGUAUUAUGUUACGCCGUUCGGAUCUGCACUUCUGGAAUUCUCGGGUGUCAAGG", "log2 enrichment": -1.71}
{"data": "Block 4", "target": "Histone acetyltransferase KAT6A, winged helix 1, GST fusion (KAT6A, Homo sapiens, UniProt Q92794, residues 1-85)", "technique": "protein binding microarray", "form": "double-stranded DNA, one strand shown", "matrix": "in vitro", "tested at": "not given", "setting": "8-mer, flanks averaged, mean of 2 arrays, mostly near background", "baseline": "not given", "direction": "higher = stronger binding", "Target sequence (chain)": "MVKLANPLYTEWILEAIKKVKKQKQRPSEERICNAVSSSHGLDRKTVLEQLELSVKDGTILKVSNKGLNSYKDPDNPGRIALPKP"}
{"Strand": "CCGACCTA", "E-score": 0.0976}
{"Strand": "CCAGAGAA", "E-score": -0.149}
{"Strand": "AGTGCGCC", "E-score": 0.346}
{"Strand": "CCCGTGGC", "E-score": 0.318}
{"Strand": "AACCCCTT", "E-score": -0.0367}
{"Strand": "GTGTTCGA", "E-score": 0.000525}
{"Strand": "CAGAATAC", "E-score": -0.0745}
{"Strand": "TCTAGACA", "E-score": -0.107}
{"Strand": "CACTCCCA", "E-score": -0.0941}
{"Strand": "CTGCTGAC", "E-score": -0.119}
{"Strand": "CAGTATGG", "E-score": -0.214}
{"Strand": "AAAATAAC", "E-score": -0.0891}
{"Strand": "ACTCGTAA", "E-score": 0.0841}
{"Strand": "AAGACGGC", "E-score": 0.289}
{"Strand": "GTGTAGTA", "E-score": -0.204}
{"Strand": "GCACCTGC", "E-score": 0.0532}
{"Strand": "GGTAAGTA", "E-score": 0.049}
{"Strand": "ATTCCAAA", "E-score": -0.0994}
{"Strand": "TACCTCCA", "E-score": -0.186}
{"Strand": "AATCCGAT", "E-score": 0.0835}
{"Strand": "AGGACAGC", "E-score": -0.0941}
{"Strand": "AGACAGAC", "E-score": 0.0206}
{"Strand": "GAGAGACA", "E-score": -0.101}
{"Strand": "CACAACGC", "E-score": 0.108}
{"Strand": "CTGCGATA", "E-score": -0.0756}
